Measured values collected from several papers.
A part holds a random share of what one study measured.

Sample 1
Target: Fragile X messenger ribonucleoprotein 1, C-terminal low-complexity region (Fmr1, Mus musculus, UniProt P35922)
Technique: RNA Bind-n-Seq
Form: RNA
Matrix: in vitro
Concentration: 200 nM
Notes: whole 134-nt RNA, ends assumed
With: 150 mM KCl
Relative to: input library
Direction: higher = stronger binding
Endpoint: log2 enrichment
All sequences stand within: GGGAGUUCUACAGUCCGACGAUC … UGGAAUUCUCGGGUGUCAAGG
AAGUCCUGUGCUACACAUCGUAUGUACCGAAUCGGCCCCCGGCCCCCGGGCCCCCGGAAAGUAUUAUGUUACGCCGUUCGGAUCUGCACU: -0.241
CUGUGCUACACAUCGUAUGUACCGAAUCGGGGUUUGGGGAAAAAAAGGGGAAAAAAAGGGGAAAGUAUUAUGUUACGCCGUUCGGAUCUG: -0.349
ACCAUGCAGGUGGGCAUCUUUGGGAAGUGGGGCGAGGGGGGGAUAGGGAGGGGGGUAACACUUUGGGAACAGGUGGUCCCAGGUCGUUUC: 0.932
ACCAUGCAGGUGGGCAUCUUUGGGGAGUGGGGCAAGGGGGGGAUAGGGAGGGGGGUAACACUUUGGGAACAGGUGGUCCCAGGUCGUUUC: 0.872
CUGUGCUACACAUCGUAUGUACCGAAUCGGGGUUUUUUUGGUUUUUUUGGGGUUUUUUUGGAAAGUAUUAUGUUACGCCGUUCGGAUCUG: -0.757
UCCUGUGCUACACAUCGUAUGUACCGAAUCGGCCCCCCGGCCCCCCGGGCCCCCCGGGGAAAGUAUUAUGUUACGCCGUUCGGAUCUGCA: -0.227

Sample 2
Target: Prothrombin, mature alpha-thrombin (F2, Homo sapiens, UniProt P00734)
Technique: aptamer microarray, sandwich
Form: DNA with 2'F-ANA
Matrix: in vitro
Concentration: 200 nM
Notes: whole 15-mer aptamer, many near background
With: Cy3 exosite-II aptamer, 400 nM
Direction: higher = stronger binding
Endpoint: mean fluorescence intensity
GGTTGGTGTGGTTGG (2'F-ANA at 3 7 9 11 14): 592 a.u.
GGTTGGTGTGGTTGG (2'F-ANA at 3 5 7 8 12 13 15): 206 a.u.
GGTTGGTGTGGTTGG (2'F-ANA at 2 3 4 6 7 8 12 13 14): 313 a.u.

Sample 3
Target: RING finger protein unkempt homolog, zinc fingers 1-6, GST-SBP tag (UNK, Homo sapiens, UniProt Q9C0B0, residues 30-357)
Chain of UniProt Q9C0B0 (30-357, looked up): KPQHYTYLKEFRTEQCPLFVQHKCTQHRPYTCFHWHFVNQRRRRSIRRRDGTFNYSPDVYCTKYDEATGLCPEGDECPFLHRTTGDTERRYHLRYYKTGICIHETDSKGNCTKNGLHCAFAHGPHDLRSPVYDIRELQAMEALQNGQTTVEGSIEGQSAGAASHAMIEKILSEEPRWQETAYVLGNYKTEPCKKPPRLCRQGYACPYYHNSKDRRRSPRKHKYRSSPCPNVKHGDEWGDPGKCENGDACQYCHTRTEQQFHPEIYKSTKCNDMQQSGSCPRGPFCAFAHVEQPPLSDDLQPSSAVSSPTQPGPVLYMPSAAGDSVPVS
Technique: RNA Bind-n-Seq
Form: RNA
Matrix: in vitro
Concentration: not given
Notes: RNA with constant flanks, human-mouse chimeric sites, ends assumed
Relative to: input RNA pool
Direction: higher = stronger binding
Endpoint: bound/input enrichment
All sequences stand within: GGGAGUUCUACAGUCCGACGAUC … CAACAGAGGAUUGAGCAUCA
CUCAUGGCUGCAGAAACAGGAAGUGGAAAAACUGGUGCUUUUAGUAUUCCCGUUAUCCAGAUAGUGUAUGAAACUCUGAAAGACCAACAGGAAGGCAAGAAAGGGAAAACAACUAUUAAA: 0.704 ratio
UAAAUUAGCCAGCACCAUUUCUGUUUCUCCCUGGGCUGCGGAAAGCCAGAAGAUUUUAUCUAGUUUGUACAAGGCUGCUGGUGUUCCCUCUUUUUUUCCACGAGGGUGUUUUUGGCUGCA: 1.81 ratio
UCUGAGGUACCACUGAAGAGACCUUAAAAGAAUCAUUUGAGGGCUCUGUUCGUGCAAGAAUAGUCACUGAUCGGGAAACUGGUUCUUCCAAAGGGUUUGGUUUUGUAAGACUUCAACGUG: 0.24 ratio
UGUAGUUUCUUGAUUUAUCAUUUUUCUCUUUUCUUUCUUUCCUUUAGGAAAAGCCUAAAGAUUAGGUUGUAAGAAAAGAAAAUAGAAUGUUUCGAAGACCUGUGUUAAUUACAGGUAGUC: 0.519 ratio
AAAGUGAUGACUAUGUUUGUACAGCGACAGGUAUUUUCGGAGAGCAAGGAUGAGAUUGCGUUAGUCCUCUAUGGCACAGAUGGCACUGAUAAUGCCCUUGCUGGCAAGGACCAGUAUCAG: 0.106 ratio

Single results of other studies
PhoQ, residues 284 288 289 292 302 303 GLASVI
fold induction (PhoP, residues 12 14 15 18 19 DLLYY (Escherichia coli, UniProt P23836); Sort-seq, measured: YFP reporter; E. coli; PhoQ-PhoP variant library, with: 10 µM Mg2+; relative to: high Mg2+ state, higher = stronger signaling): 1.56

Excerpt of the above (sample 3):
AAAGUGAUGACUAUGUUUGUACAGCGACAGGUAUUUUCGGAGAGCAAGGAUGAGAUUGCGUUAGUCCUCUAUGGCACAGAUGGCACUGAUAAUGCCCUUGCUGGCAAGGACCAGUAUCAG: 0.106 ratio
UAAAUUAGCCAGCACCAUUUCUGUUUCUCCCUGGGCUGCGGAAAGCCAGAAGAUUUUAUCUAGUUUGUACAAGGCUGCUGGUGUUCCCUCUUUUUUUCCACGAGGGUGUUUUUGGCUGCA: 1.81 ratio
UGUAGUUUCUUGAUUUAUCAUUUUUCUCUUUUCUUUCUUUCCUUUAGGAAAAGCCUAAAGAUUAGGUUGUAAGAAAAGAAAAUAGAAUGUUUCGAAGACCUGUGUUAAUUACAGGUAGUC: 0.519 ratio
